# Measured values from different studies.
# ± marks the error that the study gave.
# Cell line: MDA-MB-231
SMILES,assay,conditions,IC50
Cc1ccc2ncn(Cc3cn(Cc4ccc(/C=C/C(=O)NO)cc4)nn3)c(=O)c2c1,"cell growth or viability, MTT",48 h,9.71 µM
CC1CC(C)CN(c2cc(Nc3ccccc3C(=O)O)c3c4c(onc24)-c2ccccc2C3=O)C1 (stereo not drawn),"cell invasion, Boyden chamber",16 h,30 µM
O=C(/C=C/c1ccc(Cn2cc(Cn3cnc4ccc(Cl)cc4c3=O)nn2)cc1)NO,"cell growth or viability, MTT",48 h,4.31 µM
COC(=O)c1c(-c2ccc([N+](=O)[O-])cc2)c2n(c1C(=O)OC)CCn1cccc1-2,"cell growth or viability, MTT",48 h,78.9 µM
CC(=O)OC[C@@H]1O[C@H](n2cc(Cn3ccc4nc(-c5ccc6c(c5)OCO6)cc(=O)n43)nn2)[C@@H](OC(C)=O)[C@H](OC(C)=O)[C@H]1OC(C)=O (stereo in doubt),"cell growth or viability, MTT",72 h,39.5 µM
COCCOc1cc2ncnc(Nc3cccc(-c4cn(CCOCCOCCOCCNC(=S)NCCc5ccc(S(N)(=O)=O)cc5)nn4)c3)c2cc1OCCOC,"cell proliferation, flow cytometry cell count","72 h, hypoxia 1% O2",48.5 µM
O=C(COc1ccccc1C1=Nn2c(nnc2-c2ccccc2)SC1)NCCCCNC(=O)COc1ccccc1C1=Nn2c(nnc2-c2ccccc2)SC1,"cell growth or viability, MTT",,12.7 µM
O=C1C[C@@H](c2ccc(O)cc2)Oc2cc(O)cc(O)c21,"cell growth or viability, trypan blue",72 h,> 200 µM
COC(=O)c1c(-c2ccccc2O)c2n(c1C(=O)OC)CCn1cccc1-2,"cell growth or viability, MTT",48 h,28.2 µM
O=C(/C=C/c1ccc(Cn2cc(Cn3cnc4cc(Br)ccc4c3=O)nn2)cc1)NO,"cytotoxicity, MTT",48 h,10.2 ± 1.98 µM
O=C(COc1ccc(-c2cnc3ccccc3n2)cc1)NCCNC(=O)COc1ccc(-c2cnc3ccccc3n2)cc1,"cell viability, MTT",,> 50 µM
COc1ccc(C2CC(c3ccc(NC(=O)CN4CCN(c5ccc(OC)cc5)CC4)cc3)=NN2C(C)=O)cc1 (stereo not drawn),"cell growth or viability, MTT",,8.21 µM
Cc1ccc2c(=O)n(Cc3cn(Cc4ccc(/C=C/C(=O)NO)cc4)nn3)cnc2c1,"cell growth or viability, MTT",48 h,15.3 µM
O=C(NO)c1ccc(NC(=O)[C@@H](NS(=O)(=O)c2cccc3ccccc23)c2ccccc2)cc1,"cell growth or viability, MTT",48 h,5.12 µM
CCn1c[n+](CC)c2ccc(C(=O)OC)cc21,"cell growth or viability, crystal violet",96 h,> 100 µM
CC(=O)OC[C@@H]1O[C@H](n2cc(Cn3ccc4nc(-c5ccc(Br)cc5)cc(=O)n43)nn2)[C@@H](OC(C)=O)[C@H](OC(C)=O)[C@@H]1OC(C)=O (stereo in doubt),"cell growth or viability, MTT",72 h,46 µM
Cc1ccc2c(=O)n(Cc3cn(Cc4ccc(C(=O)NO)cc4)nn3)cnc2c1,"cell growth or viability, MTT",48 h,7.05 µM
C[C@@H]1O[C@@H](OC(=O)/C=C/c2ccc(O)cc2)[C@H](O)[C@H](OC(=O)/C=C/c2ccc(O)c(O)c2)[C@H]1O (relative stereo),"cell growth or viability, MTT",,38.6 µM
O=C(CN1CCN(c2ccc(Cl)cc2)CC1)Nc1ccc(C(=O)C=Cc2ccc(Br)cc2)cc1,"cell growth or viability, MTT",,63.4 µM
COc1cc(-c2c3n(c4c(=O)[nH]nc(O)c24)CCn2cccc2-3)cc(OC)c1OC,"cell growth or viability, MTT",48 h,67.4 µM
O=C(NO)c1ccc(Cn2cc(Cn3cnc4ccc(F)cc4c3=O)nn2)cc1,"cell growth or viability, MTT",48 h,7.99 µM
O=C(COc1ccccc1C1=Nn2c(nnc2-c2ccccc2)SC1)NCCCNC(=O)COc1ccccc1C1=Nn2c(nnc2-c2ccccc2)SC1,"cell growth or viability, MTT",,8.01 µM
O=C(NO)c1ccc(Cn2cc(Cn3cnc4ccccc4c3=O)nn2)cc1,"cell growth or viability, MTT",48 h,14.1 µM
COc1ccc(N2CCN(CC(=O)Nc3ccc(C(=O)C=Cc4cc(OC)c(OC)c(OC)c4)cc3)CC2)cc1,"cell growth or viability, MTT",,15.5 µM
O=C(NO)c1ccc(NC(=O)[C@@H](NC(=O)c2cccc(Br)c2)c2ccccc2)cc1,"cell growth or viability, MTT",48 h,4.47 µM
Cc1nnc2n1N=C(c1ccc(OCC(=O)NCCCNC(=O)COc3ccc(C4=Nn5c(C)nnc5SC4)cc3)cc1)CS2,"cell growth or viability, MTT",,3.01 µM
COC(=O)[C@H]1Cc2c([nH]c3ccccc23)[C@H](c2ccc(Cl)cc2Cl)N1,"cell growth or viability, ATP luminescence",,< 10 µM
O=C(COc1ccccc1-c1cnc2ccccc2n1)NCCNC(=O)COc1ccccc1-c1cnc2ccccc2n1,"cell growth or viability, MTT",,11 µM
COC(=O)c1c(-c2ccc(Cl)cc2)c2n(c1C(=O)OC)CCn1cccc1-2,"cell growth or viability, MTT",48 h,75.7 µM
COc1cc(C=CC(=O)c2ccc(NC(=O)CN3CCN(c4ccc(Cl)cc4)CC3)cc2)cc(OC)c1OC,"cell growth or viability, MTT",,19.9 µM
CC(=O)c1nn(-c2cccc(C)c2)/c(=N/N=C(\C)c2ccc(NC(=O)c3cccnc3)cc2)s1,"cytotoxicity, MTT",24 h,13.8 ± 1.2 µM
COC(=O)c1c(-c2cccc(OC)c2)c2n(c1C(=O)OC)CCn1cccc1-2,"cell growth or viability, MTT",48 h,70.8 µM
CC/C(=C(\c1ccccc1)c1ccc(OCCN(C)CCOCCOCCOc2ccc3[nH]cc(CCNC(C)=O)c3c2)cc1)c1ccccc1,"cell survival, MTT","day 9, dosed days 2, 4, 7",27.6 µM
Cc1ccccc1-c1c2n(c3c(=O)[nH]nc(O)c13)CCn1cccc1-2,"cell growth or viability, MTT",48 h,66.2 µM
COc1cc(/C=C/C(=O)CC(=O)/C=C/c2ccc(O)c(OC)c2)ccc1O,"cell growth or viability, MTT",48 h,11 µg/mL
O=c1[nH]nc(O)c2c(-c3ccc(Br)cc3)c3n(c12)CCn1cccc1-3,"cell growth or viability, MTT",48 h,58 µM
COc1ccc(C=CC(=O)c2ccc(NC(=O)CN3CCN(c4ccc(OC)cc4)CC3)cc2)cc1,"cell growth or viability, MTT",,23.1 µM
CNC(=O)c1cc(Oc2ccc(NC(=O)Nc3ccc(Cl)c(C(F)(F)F)c3)cc2)ccn1,"cytotoxicity, MTT",24 h,7.61 ± 0.4 µM
O=C(COc1ccc(C2=Nn3c(nnc3-c3ccccc3)SC2)cc1)NCCNC(=O)COc1ccc(C2=Nn3c(nnc3-c3ccccc3)SC2)cc1,"cell growth or viability, MTT",,31.7 µM
O=c1c(O)c(-c2cc(O)c(O)c(O)c2)oc2cc(O)cc(O)c12,"cell growth or viability, trypan blue",72 h,> 200 µM
COCCOc1cc2ncnc(Nc3cccc(-c4cn(CCOCCOCCOCCNC(=S)NCc5ccc(S(N)(=O)=O)cc5)nn4)c3)c2cc1OCCOC,"cell proliferation, flow cytometry cell count","72 h, hypoxia 1% O2",~190 µM
CC(=O)N1N=C(c2ccc(NC(=O)CN3CCN(c4ccc(Cl)cc4)CC3)cc2)CC1c1ccccc1 (stereo not drawn),"cell growth or viability, MTT",,68.3 µM
COc1cc2c(NC3CCN(C(C)C)CC3)nc(C3CCCCC3)nc2cc1OCCCN1CCCC1,"in-cell western, item: H3K9me2",48 h,0.081 ± 0.009 µM
COc1ccccc1C(=O)N[C@H](C(=O)Nc1ccc(C(=O)NO)cc1)c1ccccc1,"cell growth or viability, MTT",48 h,6.67 µM
Cc1ccc(C=CC(=O)c2ccc(NC(=O)CN3CCN(c4ccc(Cl)cc4)CC3)cc2)cc1,"cell growth or viability, MTT",,81.6 µM
CC(=O)O[C@H]1C(=O)[C@@]2(C)[C@H]([C@H](OC(=O)c3ccccc3)[C@]3(O)C[C@H](OC(=O)[C@H](O)[C@@H](NC(=O)c4ccccc4)c4ccccc4)C(C)=C1C3(C)C)[C@]1(OC(C)=O)CO[C@@H]1C[C@@H]2O,"cell growth or viability, MTT",,60 µM
COc1ccc(N2CCN(CC(=O)Nc3ccc(C4=NN(C(C)=O)C(c5ccco5)C4)cc3)CC2)cc1 (stereo not drawn),"cell growth or viability, MTT",,5.97 µM
O=c1[nH]nc(O)c2c(-c3ccc(F)cc3)c3n(c12)CCn1cccc1-3,"cell growth or viability, MTT",48 h,70.6 µM

# Excerpt of the above:
SMILES,assay,conditions,IC50
COC(=O)c1c(-c2cccc(OC)c2)c2n(c1C(=O)OC)CCn1cccc1-2,"cell growth or viability, MTT",48 h,70.8 µM
CC/C(=C(\c1ccccc1)c1ccc(OCCN(C)CCOCCOCCOc2ccc3[nH]cc(CCNC(C)=O)c3c2)cc1)c1ccccc1,"cell survival, MTT","day 9, dosed days 2, 4, 7",27.6 µM
